Measured values collected from several papers.
Numbers after ± are the reported error.
2,3-bisphosphoglycerate-independent phosphoglycerate mutase: 2,3-bisphosphoglycerate-independent phosphoglycerate mutase (Wuchereria bancrofti, UniProt B1P0R4)
Melanocortin receptor 5: Melanocortin receptor 5 (Mus musculus, UniProt P41149)
UniProt P41149, sequence (whole entry, looked up): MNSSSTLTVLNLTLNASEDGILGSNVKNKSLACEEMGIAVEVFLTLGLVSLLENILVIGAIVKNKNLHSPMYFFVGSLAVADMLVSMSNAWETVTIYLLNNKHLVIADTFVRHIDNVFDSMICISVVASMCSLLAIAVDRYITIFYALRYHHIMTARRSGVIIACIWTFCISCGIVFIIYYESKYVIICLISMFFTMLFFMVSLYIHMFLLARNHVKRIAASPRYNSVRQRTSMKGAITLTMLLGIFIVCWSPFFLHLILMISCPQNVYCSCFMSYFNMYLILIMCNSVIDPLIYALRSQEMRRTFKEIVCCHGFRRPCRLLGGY
gpmI: 2,3-bisphosphoglycerate-independent phosphoglycerate mutase (gpmI, Mycoplasma pneumoniae, UniProt P75167)
UniProt P75167, sequence (whole entry, looked up): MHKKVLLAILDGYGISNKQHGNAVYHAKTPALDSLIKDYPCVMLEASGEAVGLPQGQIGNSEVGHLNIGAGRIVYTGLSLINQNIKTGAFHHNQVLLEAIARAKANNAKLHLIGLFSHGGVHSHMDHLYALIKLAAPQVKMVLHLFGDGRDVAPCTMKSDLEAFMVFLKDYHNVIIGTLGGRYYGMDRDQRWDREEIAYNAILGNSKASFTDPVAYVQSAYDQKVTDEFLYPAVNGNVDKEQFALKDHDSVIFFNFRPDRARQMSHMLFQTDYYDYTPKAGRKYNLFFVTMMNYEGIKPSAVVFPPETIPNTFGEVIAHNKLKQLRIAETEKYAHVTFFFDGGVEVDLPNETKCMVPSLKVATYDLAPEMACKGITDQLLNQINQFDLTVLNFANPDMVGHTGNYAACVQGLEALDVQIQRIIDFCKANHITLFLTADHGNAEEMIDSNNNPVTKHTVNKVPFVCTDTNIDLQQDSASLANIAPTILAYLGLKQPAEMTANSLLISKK
UniProt P0DSP4, sequence (whole entry, looked up): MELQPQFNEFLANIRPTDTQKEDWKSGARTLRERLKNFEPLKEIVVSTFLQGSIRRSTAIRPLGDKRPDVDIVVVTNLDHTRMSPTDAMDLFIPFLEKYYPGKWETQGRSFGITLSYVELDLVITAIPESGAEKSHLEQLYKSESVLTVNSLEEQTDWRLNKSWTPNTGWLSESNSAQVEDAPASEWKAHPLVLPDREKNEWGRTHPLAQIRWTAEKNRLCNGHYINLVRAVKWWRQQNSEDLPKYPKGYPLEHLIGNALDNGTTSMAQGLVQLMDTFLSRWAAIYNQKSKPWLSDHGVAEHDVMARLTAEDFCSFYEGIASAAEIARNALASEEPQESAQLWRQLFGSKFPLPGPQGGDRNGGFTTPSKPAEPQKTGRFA
UniProt P30547, sequence (whole entry, looked up): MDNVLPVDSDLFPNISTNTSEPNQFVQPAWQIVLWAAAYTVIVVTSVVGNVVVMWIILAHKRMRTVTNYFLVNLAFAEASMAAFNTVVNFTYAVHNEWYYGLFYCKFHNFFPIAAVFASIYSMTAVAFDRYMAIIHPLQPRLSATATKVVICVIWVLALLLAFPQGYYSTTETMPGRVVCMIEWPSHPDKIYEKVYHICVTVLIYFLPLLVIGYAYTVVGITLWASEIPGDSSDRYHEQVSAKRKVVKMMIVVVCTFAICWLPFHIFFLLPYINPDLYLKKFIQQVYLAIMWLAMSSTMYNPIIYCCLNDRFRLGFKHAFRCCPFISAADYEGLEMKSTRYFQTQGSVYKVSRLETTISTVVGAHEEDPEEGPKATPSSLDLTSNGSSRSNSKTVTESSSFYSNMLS
UniProt P33033, sequence (whole entry, looked up): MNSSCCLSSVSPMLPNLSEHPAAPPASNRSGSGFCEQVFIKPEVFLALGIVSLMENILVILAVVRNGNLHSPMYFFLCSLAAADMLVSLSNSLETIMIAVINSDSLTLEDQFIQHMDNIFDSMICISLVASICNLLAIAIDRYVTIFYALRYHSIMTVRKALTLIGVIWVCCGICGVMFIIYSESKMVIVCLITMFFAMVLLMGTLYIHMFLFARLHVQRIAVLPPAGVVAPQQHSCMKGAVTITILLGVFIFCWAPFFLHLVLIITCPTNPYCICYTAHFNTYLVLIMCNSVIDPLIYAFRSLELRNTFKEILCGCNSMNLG
UniProt P25084, sequence (whole entry, looked up): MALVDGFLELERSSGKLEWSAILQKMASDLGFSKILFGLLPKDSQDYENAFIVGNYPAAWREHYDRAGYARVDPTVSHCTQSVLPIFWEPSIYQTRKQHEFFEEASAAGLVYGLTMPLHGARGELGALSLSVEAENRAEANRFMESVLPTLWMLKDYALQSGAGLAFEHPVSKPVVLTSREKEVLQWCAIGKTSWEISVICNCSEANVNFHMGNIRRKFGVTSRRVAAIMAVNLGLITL
UniProt P41595, sequence (whole entry, looked up): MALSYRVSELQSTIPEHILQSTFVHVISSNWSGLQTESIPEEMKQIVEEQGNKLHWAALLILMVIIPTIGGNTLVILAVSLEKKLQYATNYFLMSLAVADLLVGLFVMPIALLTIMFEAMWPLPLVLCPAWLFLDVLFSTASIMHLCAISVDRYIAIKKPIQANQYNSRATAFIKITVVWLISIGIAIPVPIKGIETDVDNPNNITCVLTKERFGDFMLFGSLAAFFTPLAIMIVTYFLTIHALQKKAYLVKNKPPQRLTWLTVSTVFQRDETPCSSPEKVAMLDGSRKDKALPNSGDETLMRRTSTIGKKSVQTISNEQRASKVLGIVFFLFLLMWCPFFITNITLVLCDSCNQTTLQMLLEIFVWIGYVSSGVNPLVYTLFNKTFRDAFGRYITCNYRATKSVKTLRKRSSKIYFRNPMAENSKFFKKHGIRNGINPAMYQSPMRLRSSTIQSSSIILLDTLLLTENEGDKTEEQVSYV
UniProt P54764, sequence (whole entry, looked up): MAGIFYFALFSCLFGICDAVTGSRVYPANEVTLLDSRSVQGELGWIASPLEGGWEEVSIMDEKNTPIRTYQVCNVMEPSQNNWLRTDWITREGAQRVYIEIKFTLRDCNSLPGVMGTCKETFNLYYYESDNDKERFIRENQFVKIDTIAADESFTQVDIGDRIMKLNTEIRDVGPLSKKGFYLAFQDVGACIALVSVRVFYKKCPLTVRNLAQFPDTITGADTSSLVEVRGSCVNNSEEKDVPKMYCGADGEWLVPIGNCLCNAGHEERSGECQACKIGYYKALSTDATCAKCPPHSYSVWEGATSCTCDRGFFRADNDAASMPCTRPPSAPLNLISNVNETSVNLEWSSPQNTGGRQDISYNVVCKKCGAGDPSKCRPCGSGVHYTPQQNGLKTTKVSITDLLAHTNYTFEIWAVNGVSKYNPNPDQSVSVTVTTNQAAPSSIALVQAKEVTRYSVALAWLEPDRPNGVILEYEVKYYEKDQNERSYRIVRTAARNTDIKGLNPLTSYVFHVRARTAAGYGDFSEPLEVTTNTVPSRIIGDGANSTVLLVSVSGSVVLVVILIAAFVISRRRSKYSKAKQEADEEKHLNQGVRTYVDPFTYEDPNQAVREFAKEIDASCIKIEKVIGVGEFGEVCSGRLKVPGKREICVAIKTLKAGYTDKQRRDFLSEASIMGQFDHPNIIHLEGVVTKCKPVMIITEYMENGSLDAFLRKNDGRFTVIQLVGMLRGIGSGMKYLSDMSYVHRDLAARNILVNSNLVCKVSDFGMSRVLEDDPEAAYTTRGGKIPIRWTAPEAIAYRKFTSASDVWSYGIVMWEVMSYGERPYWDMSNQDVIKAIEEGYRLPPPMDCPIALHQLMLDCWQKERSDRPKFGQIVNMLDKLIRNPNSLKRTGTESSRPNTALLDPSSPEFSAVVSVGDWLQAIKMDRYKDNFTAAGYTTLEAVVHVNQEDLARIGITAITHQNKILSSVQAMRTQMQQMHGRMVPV

CS(=O)(=O)c1cccc(OCCCC(=O)NC2CC3CC3C2O)c1 (stereo not drawn) has an EC50 of over 20 µM (Transcriptional activator protein LasR (lasR, Pseudomonas aeruginosa, UniProt P25084); reporter gene, agonist; Escherichia coli lasB-lux reporter).
CC(C)[C@@H]1NC(=O)[C@H](CO)NC(=O)[C@H](Cc2c[nH]c3ccccc23)NC(=O)[C@H](CCC(=O)O)NC(=O)[C@H](CC(=O)O)NC(=O)[C@H](Cc2ccc(O)cc2)NC(=O)[C@H](Cc2ccc(O)cc2)NC(=O)[C@H](Cc2c[nH]c3ccccc23)NC(=O)[C@H](Cc2c[nH]c3ccccc23)NC(=O)[C@H](CC(=O)O)NC(=O)CNC(=O)[C@H](CO)NC(=O)[C@@H](Cc2ccc(O)cc2)NC(=O)CSC[C@@H](C(N)=O)NC(=O)CNC(=O)[C@H](Cc2ccccc2)NC(=O)[C@H](C)NC1=O gave an AC50 of 56.2 µM (2,3-bisphosphoglycerate-independent phosphoglycerate mutase; biochemical).
The EC50 of CC(=O)N[C@@H](CCCNC(=N)N)C(=O)N[C@@H](CCCNC(=N)N)C(=O)N[C@H](C(=O)N1Cc2ccccc2C[C@H]1C(N)=O)[C@H](c1ccccc1)c1c[nH]c2ccccc12 is reported as over 100 µM (Melanocortin receptor 3 (Mus musculus, UniProt P33033); cAMP, agonist, AlphaScreen).
With C[C@@H]1NC(=O)[C@H](CC(N)=O)N2C[C@H](Cc3c[nH]c4ccccc34)NC(=O)[C@H](CSCC2=O)NC(=O)[C@H](CCCNC(=N)N)NC(=O)[C@@H](Cc2ccccc2)NC(=O)[C@H](Cc2c[nH]cn2)NC(=O)[C@@H](NC(=O)[C@@H](N)Cc2ccc(O)cc2)CSSC[C@@H](C(=O)N[C@@H](Cc2ccc(O)cc2)C(N)=O)NC(=O)[C@H](Cc2ccccc2)NC1=O the EC50 was 0.0119 µM (Melanocortin receptor 5; reporter gene, agonist).
With Nc1ncnc2c1ncn2[C@@H]1O[C@H](COP(=O)(O)CP(=O)(O)OP(=O)(O)O)[C@@H](O)[C@H]1O the Kd was 39.5 ± 4.9 µM (Cyclic AMP-AMP-GMP synthase (cdnD02, Enterobacter hormaechei subsp. hoffmannii, UniProt P0DSP4); binding, isothermal titration calorimetry).
CCCC[C@H](NC(=O)[C@H](Cc1ccccc1)NC(=O)CNC(=O)[C@@H](C)NC(=O)[C@@H](N)Cc1ccc(O)cc1)C(=O)N1CCC[C@H]1C(=O)N[C@@H](CC(C)C)C(=O)N[C@@H](Cc1c[nH]c2ccccc12)C(=O)NCc1cc(C(F)(F)F)cc(C(F)(F)F)c1 has a Kb of 0.01 µM (Substance-P receptor (Cavia porcellus, UniProt P30547); tissue contraction, antagonist).
The AC50 of C[C@@H](O)[C@@H]1NC(=O)[C@H](CC(=O)O)NC(=O)[C@@H]2CCCN2C(=O)[C@H](Cc2ccc(O)cc2)NC(=O)CSC[C@@H](C(N)=O)NC(=O)[C@H](Cc2c[nH]cn2)NC(=O)[C@H](Cc2c[nH]c3ccccc23)NC(=O)[C@H](CCC(=O)O)NC(=O)[C@H](CC(=O)O)NC(=O)[C@H](Cc2ccc(O)cc2)N(C)C(=O)[C@H](Cc2ccc(O)cc2)NC(=O)[C@H](Cc2c[nH]c3ccccc23)NC(=O)[C@H](Cc2c[nH]c3ccccc23)NC(=O)[C@H](CC(N)=O)NC1=O is reported as 0.00186 µM (gpmI; biochemical).
With CNC(=O)C1CCN(c2ccccc2NC(=O)c2ccc(-c3cc(O)ccc3C)c(C)n2)CC1 the Ki was 0.00038 µM (Ephrin type-A receptor 4 (EPHA4, Homo sapiens, UniProt P54764); enzyme activity, inhibitor).
COc1ccc(C[C@H]2C(=O)N[C@@H](CC(N)=O)C(=O)N[C@@H](CC(=O)O)C(=O)N[C@@H](CO)C(=O)NCC(=O)N[C@@H](Cc3c[nH]c4ccccc34)C(=O)N(C)[C@@H](Cc3ccc(O)cc3)C(=O)N[C@@H](CC(N)=O)C(=O)N[C@@H]([C@@H](C)O)C(=O)N(C)[C@@H](Cc3ccccc3)C(=O)N[C@H](C(N)=O)CSCC(=O)N[C@@H](Cc3ccc(O)cc3)C(=O)N2C)cc1 gave an AC50 of 42.7 µM (gpmI; biochemical).
CC(=O)N[C@H]1[C@@H](O[C@H](C)[C@H](NC(=O)[C@H](CO)NC(=O)CNC(=O)[C@@H]2CCCN2C(=O)[C@H](C)NC(=O)[C@@H]2CCCN2C(=O)[C@@H](N)CCCNC(=N)N)C(=O)N[C@@H](C)C(=O)N2CCC[C@H]2C(=O)N2CCC[C@H]2C(=O)N[C@@H](C)C(=O)N[C@@H](Cc2c[nH]cn2)C(=O)NCC(=O)O)O[C@H](CO)[C@H](O)[C@@H]1O gave a KD ratio of 2.8 fold (anti-MUC1 Fab 16 A W34F mutant, murine; SPR; reference: peptide KD over Glyco-T KD).
With Cc1cc(-c2ccc3ccccc3c2)nnc1NCCN1CCN(C)CC1 the Kd was 0.125 µM (5-hydroxytryptamine receptor 2B (HTR2B, Homo sapiens, UniProt P41595); Gq activation, antagonist, Schild analysis; with: serotonin).
Cl.Cl.Cl.Cl.Cl.Cl.Cl.Cl.Cl.Cl.Cl.Cl.NC[C@@H]1O[C@H](O[C@H]2[C@@H](O)[C@H](O[C@@H]3[C@@H](O)[C@H](N)C[C@H](N)[C@H]3O[C@H]3O[C@H](CN)[C@@H](O)[C@H](O)[C@H]3N)O[C@@H]2Cn2cc(COCCCCCCCCOCc3cn(C[C@H]4O[C@@H](O[C@@H]5[C@@H](O)[C@H](N)C[C@H](N)[C@H]5O[C@H]5O[C@H](CN)[C@@H](O)[C@H](O)[C@H]5N)[C@H](O)[C@@H]4O[C@H]4O[C@@H](CN)[C@@H](O)[C@H](O)[C@H]4N)nn3)nn2)[C@H](N)[C@@H](O)[C@@H]1O gave a binding constant of 7.58e+06 M⁻¹ (HIV-1 TAR RNA; RNA binding, ethidium bromide displacement; pH 6.8, TAR RNA 200 nM per strand, with: ethidium bromide 5 µM).
The AC50 of CC(C)[C@@H]1NC(=O)[C@H](CCC(N)=O)NC(=O)[C@@H](Cc2ccc(O)cc2)NC(=O)CSC[C@@H](C(N)=O)NC(=O)[C@H](CC(=O)O)NC(=O)[C@H](CCC(=O)O)NC(=O)[C@H](Cc2c[nH]c3ccccc23)NC(=O)[C@@H]2CCCN2C(=O)[C@H](CO)N(C)C(=O)[C@H](C)NC(=O)[C@H](Cc2c[nH]c3ccccc23)NC(=O)[C@H](Cc2c[nH]c3ccccc23)NC(=O)[C@H](C(C)C)NC(=O)[C@H]([C@@H](C)O)NC1=O is reported as 12 µM (2,3-bisphosphoglycerate-independent phosphoglycerate mutase; biochemical).
Cl.Cl.Cl.Cl.Cl.Cl.Cl.Cl.Cl.Cl.Cl.Cl.NC[C@@H]1O[C@H](O[C@H]2[C@@H](O)[C@H](O[C@@H]3[C@@H](O)[C@H](N)C[C@H](N)[C@H]3O[C@H]3O[C@H](CN)[C@@H](O)[C@H](O)[C@H]3N)O[C@@H]2Cn2cc(-c3ccc(-c4cn(C[C@H]5O[C@@H](O[C@@H]6[C@@H](O)[C@H](N)C[C@H](N)[C@H]6O[C@H]6O[C@H](CN)[C@@H](O)[C@H](O)[C@H]6N)[C@H](O)[C@@H]5O[C@H]5O[C@@H](CN)[C@@H](O)[C@H](O)[C@H]5N)nn4)cc3)nn2)[C@H](N)[C@@H](O)[C@@H]1O gave a binding constant of 1.46e+08 M⁻¹ (HIV-1 TAR RNA; RNA binding, ethidium bromide displacement; pH 6.8, TAR RNA 200 nM per strand, with: ethidium bromide 5 µM).
The EC50 of CC(=O)N[C@@H](CCCNC(=N)N)C(=O)N[C@@H](CCCNC(=N)N)C(=O)N[C@H](Cc1ccc(I)cc1)C(=O)N[C@@H](C(N)=O)[C@@H](c1ccccc1)c1c[nH]c2ccccc12 is reported as 0.65 µM (Melanocortin receptor 5; cAMP, agonist, AlphaScreen).
